# Assay results pooled from the literature.
# Compare with care: the assays were run in different laboratories. ± gives the spread as reported.
# Sample: plasma
Structure (SMILES),technique,host,route,dose,time,notes,Cmax [ng/mL]
CC(=O)N[C@H](CSSC[C@H](N)C(=O)O)C(=O)N[C@H](C)C(=O)N[C@H](CCCNC(=N)N)C(=O)N[C@H](CCCNC(=N)N)C(=O)N[C@H](CCCNC(=N)N)C(=O)N[C@H](C)C(=O)N[C@H](CCCNC(=N)N)C(N)=O,,male human,intravenous,0.5 mg,,"single dose, healthy volunteers",42.9
O=C(CCc1ccc(CNC(C(=O)OC2CCCC2)C2CCCCC2)cn1)NO (stereo not drawn),,human,oral,60 mg,,"single dose, patients",288
CC(C)[C@H](NC(=O)CNC(=O)[C@H](CCC(N)=O)NC(=O)[C@H](C)N)C(=O)O,LC-MS/MS,"human, male",intravenous,10 mg/kg three times daily,"day 2, first dose","10 min infusion, geometric mean",2240
Cc1ccc(OCC(=O)O)cc1,,"Sprague-Dawley rat, female",oral gavage,10 mg/kg of parent drug,,,3470 ± 1120
CN1CCC[C@]1(C)/C=C/S(=O)(=O)NC(=O)Nc1c2c(cc3c1CCC3)CCC2,,human,oral,25 mg,,"single dose, healthy volunteers",3200
CC(=O)N[C@H](CC(=O)O)C(=O)N[C@H](Cc1c[nH]c2ccccc12)C(=O)N[C@H](Cc1ccccc1)C(=O)N[C@H](CCCCN)C(=O)N[C@H](C)C(=O)N[C@H](Cc1ccccc1)C(=O)N[C@H](Cc1ccc(O)cc1)C(=O)N[C@H](CC(=O)O)C(=O)N[C@H](CCCCN)C(=O)N[C@@H](C(=O)N[C@H](C)C(=O)N[C@H](CCC(=O)O)C(=O)N[C@H](CCCCN)C(=O)N[C@H](Cc1ccccc1)C(=O)N[C@H](CCCCN)C(=O)N[C@H](CCC(=O)O)C(=O)N[C@H](C)C(=O)N[C@H](Cc1ccccc1)C(N)=O)C(C)C,,statin-treated high-risk CHD patients,oral,500 mg daily,"day 1, 0 to 2 h","mean, all subjects",64.6
CC(C)(O)c1ncc([S@](N)(=O)=NC(=O)Nc2c3c(cc4c2CCC4)CCC3)s1,,human,oral,10 mg,,"single dose, fasted, healthy volunteers",1230
CC12CC(c3ccc(S(C)(=O)=O)cc3)C3=C4CCC(=O)C=C4CCC3C1CCC2(O)C(F)(F)C(F)(F)F (stereo not drawn),,human,oral,5 mg,,"single dose, fasted",~25
[2H]C([2H])([2H])NC(=O)c1ccc(N2C(=S)N(c3ccc(C#N)c(C(F)(F)F)c3)C(=O)C2(C)C)cc1F,,male human,oral,40 mg,,"single dose, fasted",1480
